Measurements pooled from the literature.
Lines come from different studies, so protocols differ. ± marks the error that the study gave.

Cc1c(C(=O)O)ccc2c3n(nc12)[C@@H]1[C@H](C3)N(CC2CC2)[C@@]2(C(=O)Nc3cc(Cl)ccc32)[C@H]1c1cccc(Cl)c1F  plasma concentration (female BALB/c nude mice, SJSA-1 xenograft, plasma; oral, 2 mg/kg once daily, 31 h): 427 nM
C[C@@H]1CCO[C@H]2Cn3cc(C(=O)NCc4ccc(F)cc4F)c(=O)c(O)c3C(=O)N12  plasma concentration (population PK, post-hoc; children, 6 to <10 kg, plasma; oral, 20 mg dispersible tablet, 24 h, steady state, geometric mean): 1420 ng/mL
CNCCOC12CC3(C)CC(C)(CC(Cn4ncc(-c5ccc(N6CCc7cccc(C(=O)Nc8nc9ccccc9s8)c7C6)nc5C(=O)O)c4C)(C3)C1)C2  plasma concentration (anaesthetised male beagle dogs; intravenous bolus, 0.03 mg/kg, 75 min): 0 ng/mL
CCCCCN1C[C@H](O)[C@@H](O)[C@H](O)[C@@H]1CO  plasma concentration (LC-MS/MS; mouse Hexb-/- female, plasma; 300 mg/kg/day, geometric mean): 3170 ng/mL
O=c1ccn([C@@H]2O[C@H](COP(=O)(O)OP(=O)(O)O)[C@@H](O)[C@H]2O)c(=O)[nH]1  log2 fold change (binding, MIDAS equilibrium dialysis LC-MS; A2AR-BRIL thermostabilized; concentration not given; baseline: no-protein control): -0.985
COc1ccc2c(c1)CN(C(=O)CCN1CCC(Cc3ccccc3)CC1)CC[S@@+]2[O-]  plasma concentration (anaesthetised beagle dog, male, plasma; intravenous, 2 mg/kg over 30 min, end of infusion): 712 ± 276 ng/mL
C[C@@H](O)[C@H]1C(=O)N2C(C(=O)O)=C(S[C@@H]3CN[C@H](C(=O)N(C)C)C3)[C@H](C)[C@H]12  plasma concentration (BALB/c mouse, male, plasma; intraperitoneal, 100 mg/kg, 8 h): 3860 ng/mL
COc1cccc(-c2n[nH]c(SCc3ccccn3)n2)c1OC  plasma concentration (Sprague-Dawley rats, both sexes; oral dietary, 30 mg/kg/day, day 90, 6 h): 3160 ng/mL
Cc1cc([C@H]2C[C@H]3[C@@H](CF)SC(N)=N[C@@]3(c3ccc(F)cc3F)CO2)on1  plasma concentration (male 129/SVE wild-type mouse, plasma; subcutaneous, 100 mg/kg, 3 h): 2170 nM
Cn1cc(-c2ccc(-c3cncc(Cl)c3N3CCC4(CCNC4=O)CC3)cc2)cn1  fold change in expression (COLO 205; microarray, refers to: CASC5; concentration not given, 2 h, gene set AF15q14; baseline: untreated cells): -2.8
Cc1c(-c2ccc(N3CCc4cccc(C(=O)Nc5nc6ccccc6s5)c4C3)nc2C(=O)O)cnn1CC12CC3(C)CC(C)(C1)CC(OCCNCC[C@H](O)CO)(C3)C2  plasma concentration (anaesthetized male beagle dog; iv infusion, 0.1 mg/kg/min, 90 min): < 4 ng/mL
CC(=O)N[C@@H](CCC(=O)O)C(=O)O  log2 fold change (binding, MIDAS equilibrium dialysis LC-MS; A2AR-BRIL thermostabilized; concentration not given; baseline: no-protein control): 0.00726
CCOCc1nc(O)c(-c2nnc(Cc3ccc(Cl)cn3)o2)c(O)c1-c1c(OC)cccc1OC  plasma concentration (rat, anaesthetised, cannulated, plasma; intravenous infusion, 1 µg/kg/min, 30 min after infusion stop, washout): 34 nM

Excerpt of the above:
Cc1c(C(=O)O)ccc2c3n(nc12)[C@@H]1[C@H](C3)N(CC2CC2)[C@@]2(C(=O)Nc3cc(Cl)ccc32)[C@H]1c1cccc(Cl)c1F  plasma concentration (female BALB/c nude mice, SJSA-1 xenograft, plasma; oral, 2 mg/kg once daily, 31 h): 427 nM
C[C@@H]1CCO[C@H]2Cn3cc(C(=O)NCc4ccc(F)cc4F)c(=O)c(O)c3C(=O)N12  plasma concentration (population PK, post-hoc; children, 6 to <10 kg, plasma; oral, 20 mg dispersible tablet, 24 h, steady state, geometric mean): 1420 ng/mL
